Results pooled from the literature.
Every numbered part comes from another study and shows a few of its results, in no order. Substitutions count along the parent as printed.

Study 1
Target: CCNF, cyclin fold, Cln2 fusion (human)
Method: yeast growth competition, sequencing
Medium: yeast
Setting: strong parent motif
Reference: not given
Reading: higher = stronger binding
Parent: PKMYT1 docking peptide (human); SFEPRNLLSLFED; partner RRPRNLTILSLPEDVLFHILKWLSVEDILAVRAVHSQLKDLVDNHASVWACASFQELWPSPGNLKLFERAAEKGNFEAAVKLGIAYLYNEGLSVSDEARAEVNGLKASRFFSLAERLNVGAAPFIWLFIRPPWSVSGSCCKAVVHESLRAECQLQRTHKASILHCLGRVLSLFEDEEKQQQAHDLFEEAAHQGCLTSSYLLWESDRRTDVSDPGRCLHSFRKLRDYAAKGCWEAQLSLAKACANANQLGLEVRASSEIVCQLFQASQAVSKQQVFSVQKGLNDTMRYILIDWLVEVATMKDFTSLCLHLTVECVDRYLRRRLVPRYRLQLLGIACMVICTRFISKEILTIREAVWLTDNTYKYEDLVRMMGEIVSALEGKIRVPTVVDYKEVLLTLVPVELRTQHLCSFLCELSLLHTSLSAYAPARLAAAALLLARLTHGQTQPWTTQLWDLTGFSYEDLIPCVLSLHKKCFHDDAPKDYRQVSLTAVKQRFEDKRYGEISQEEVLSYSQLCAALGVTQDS
Variant | normalised enrichment score
P4H | -0.666
D13Q | 0.76
S1W | 2.96
N6T | -0.339
L8R | 0.345
F11R | -1.11
S9R | 0.917
F11D | 0.276
S1T | 0.701
D13R | 1.85
L8K | -0.104
R5F | -0.806
P4E | -1.27
E3T | 2.88
F11A | -1.01
L10N | 0.141
F2K | 0.932
L10E | 0.722
P4W | 0.928
S9I | 0.227
P4I | -0.385
P4G | -0.164
L10Y | 1.88
N6K | 1.35
F11C | -0.676

Study 2
Target: ABI1, truncated, D143A, DHFR fusion (Arabidopsis thaliana)
Method: DHFR PCA, deep sequencing
Medium: yeast
Setting: methotrexate growth selection, single substitutions
With: (+)-ABA 4.8 µM
Reference: wild-type fitted maximum
Reading: higher = stronger binding
Parent: PYL1, truncated, DHFR fusion (Arabidopsis thaliana); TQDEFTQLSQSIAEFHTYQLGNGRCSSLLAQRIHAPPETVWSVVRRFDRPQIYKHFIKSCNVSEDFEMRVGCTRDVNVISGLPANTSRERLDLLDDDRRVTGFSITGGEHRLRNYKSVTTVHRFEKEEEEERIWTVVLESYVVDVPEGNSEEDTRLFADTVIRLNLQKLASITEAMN
Variant | relative binding score
Q167L | 71.4%
R111A | 3.47%
V62T | 57.8%
H55T | 81.4%
L112C | -4.86%
N77Q | 89.1%
E14C | 26.5%
M68W | 20%
R99P | -7.11%
E67A | 64.9%
E4D | 70.9%
T101V | 66.1%
E151P | 81.3%
D144G | 4.24%
S117R | -11.9%
R90I | 27.1%
M68P | 46.6%
F5G | 48.4%
H110V | 3.83%
D92E | 44.2%
A170P | -12.6%
W41C | 17%
R90M | 37.4%
I172Q | 13.2%
Q10K | 75.8%

Study 3
Target: JUND, bZIP domain (human)
Method: DHFR protein complementation
Medium: yeast
Setting: single substitutions, most at no-binding floor
Reference: wild-type JUN-FOS pair
Reading: higher = stronger binding
Parent: JUN, bZIP domain (human); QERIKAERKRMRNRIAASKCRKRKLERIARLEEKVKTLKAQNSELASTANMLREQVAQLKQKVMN
Variant | binding fitness [natural log]
L45P | -1.47
E32G | -1.3
L52D | -1.38
N42A | -1.26
L38D | -1.39
L38E | -1.46
A46G | -1.21
L52G | -1.45
L45F | -1.33
L31Y | -1.43
L59V | -1.49
V56R | -1.29
T48P | -1.44
L38R | -1.45
Q41S | -1.46
R53D | -1.5
V56H | -1.35
E54F | -1.2
R53V | -1.23
E32Y | -1.35
L31R | -1.49

Study 4
Target: RING finger protein unkempt homolog, zinc fingers 1-6, GST-SBP tag (UNK, Homo sapiens, UniProt Q9C0B0, residues 30-357)
UniProt Q9C0B0, sequence (30-357, looked up): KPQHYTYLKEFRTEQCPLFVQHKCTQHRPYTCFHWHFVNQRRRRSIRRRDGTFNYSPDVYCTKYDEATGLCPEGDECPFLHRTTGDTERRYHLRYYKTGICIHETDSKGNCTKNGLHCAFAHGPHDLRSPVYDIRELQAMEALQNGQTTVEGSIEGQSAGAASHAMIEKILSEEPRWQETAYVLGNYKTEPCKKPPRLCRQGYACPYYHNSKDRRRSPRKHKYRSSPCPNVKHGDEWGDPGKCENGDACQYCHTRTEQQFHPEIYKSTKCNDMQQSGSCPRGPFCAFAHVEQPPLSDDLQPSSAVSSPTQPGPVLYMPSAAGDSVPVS
Method: RNA Bind-n-Seq
Form: RNA
Medium: in vitro
Tested at: not given
Setting: RNA with constant flanks, human-mouse chimeric sites, ends assumed
Reference: input RNA pool
Reading: higher = stronger binding
All sequences stand within: GGGAGUUCUACAGUCCGACGAUC … CAACAGAGGAUUGAGCAUCA
Oligonucleotide | bound/input enrichment
CUCAGAGAUGUGGCAUAUCAGUAUGUGAAAAAGGGGGCUCGAAUUUAUGUGGAAGGGAAAGUGGACUAUGGUGAAUACAUGGAUAAAAACAAUGUGAGGCGGCAAGCAACAACAAUCAUA | 0.362 ratio
AAUUUCCUGUCAUACUUUUUAGACAUUCACAUCAGACGCCUUACUACCCUGGCCACAUUCUAGGUUUGUGUUAUUUCUAAGCCUUUUAUAUGAUCAAAUGAGAACACUGCUUAACUAAUG | 0.475 ratio
CUGAGGAUACCACUGAAGAGACCUUAAAAGAAUCAUUUGAGGGCUCUGUUCGUGCAAGAAUAGUCACUGAUCGGGAAAACUGGGUCCCCAAAGGGUUUGGUUUUGUAAGACUUCAACGUG | 0.182 ratio
ACACAAUAUGAGACCAACAGCAUGGACUUCAAAGUUGGGGCGGAUGGGACAGUCUUCGCCACCCGGGAGUUGAAGAUCCCCUCCGAGCAGGUGGCGUUCACGGUGACUGCAUGGGACAGC | 0.501 ratio
CUGUUUUGACAGCCACACAAUCUUGGCAUGUAUUAAGGAAAAAAAAAAUCCCUGUUCAAGUAGUUUUUCCACCUAUCAGCACUGAGUAAAUGCCAUAAAUCCAUUGAAAUGGUCUAAAUA | 0.263 ratio
GUUCGACUCUGGGAUCAUGCUACUAUGACAGAAGUGAAAUCUCUGAAUUUUAAUAUGUCUGUUAGCAGCAUGGAGUAUAUUCCUGAAGGAGAGAUUUUGGUUAUUACUUAUGGACGAUCU | 0.186 ratio
UGUAGUUUCUUGAUUUAUCAUUUUUCUCUUUUCUUUCUUUCCUUUAGGAAAAGCCUAAAGAUUAGACUGUAAGAAAAACAGAAGCCAGCCAUGUUUCACCUGUGUUACAGGUAUUUCGUC | 0.22 ratio
AGGAGGAGGUUAAAGGGUGAGAGUGGGGUGGAAGACUGUGUCAUGGCCCUAGAAACCUUGUUUAGUGUCCUGCUUUCUCUGUGCAGACUGAUGGCCCCUUACACGCCCUUUCUGACUGAG | 0.125 ratio
ACCUCCCCCUCCCGCCUCACCCCACCCCCGCUUUUUGGAAAGUUUUUGGCGUUUCUUUUCCUUCCCCAGUUAGAAUUAUUACAGUUUCCCCCGCAAGUGGGGCUUGAAGGGCUUGACGGA | 20.2 ratio
AAAUCAUGUGUGUCCAAUAUUGAAAGUGCUUUAUCUACACUCCAGUAUGUAAGCAGUAUAGUAGUUUCUUUAGAGAAUAGGUCAGCCAUUGUAAAGUACAAUGCAAGCUCAGUCACUCCA | 28.9 ratio
AAAGCCCAAGUAUUUUGAAAAAACUCGAACAGAUUUGACAAGGGUAGCCAGCUUGGAGUCUAGCAACUUGCCAAUGUUGCUUACCAACUGGGGGCUUGUUUUUCUUUUCUUCUUUCAAAU | 0.182 ratio
